Results pooled from the literature.
Lines come from different studies, so protocols differ. Numbers after ± are the reported error.
Target: Tyrosine-protein kinase HCK (HCK, Homo sapiens, UniProt P08631)
Sequence of UniProt P08631 (whole entry, looked up): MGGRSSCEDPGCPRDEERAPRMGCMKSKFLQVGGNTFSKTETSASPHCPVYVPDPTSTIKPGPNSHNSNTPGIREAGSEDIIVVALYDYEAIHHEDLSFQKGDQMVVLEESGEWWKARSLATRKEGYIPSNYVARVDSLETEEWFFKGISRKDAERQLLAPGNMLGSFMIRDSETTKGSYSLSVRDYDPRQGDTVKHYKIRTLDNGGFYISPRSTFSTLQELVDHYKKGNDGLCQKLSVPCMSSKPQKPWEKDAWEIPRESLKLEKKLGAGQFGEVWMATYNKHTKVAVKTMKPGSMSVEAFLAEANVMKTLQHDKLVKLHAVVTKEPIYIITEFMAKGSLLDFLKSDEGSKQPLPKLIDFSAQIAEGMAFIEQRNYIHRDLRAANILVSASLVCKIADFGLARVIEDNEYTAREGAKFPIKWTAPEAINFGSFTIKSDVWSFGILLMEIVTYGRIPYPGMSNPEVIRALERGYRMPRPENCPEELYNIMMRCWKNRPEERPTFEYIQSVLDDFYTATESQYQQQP

C=CC(=O)N1CCC([C@@H]2CCNc3c(C(N)=O)c(-c4ccc(Oc5ccccc5)cc4)nn32)CC1 — remaining activity (kinase activity, inhibitor, HotSpot radiometric; 100 nM, added: ATP 10 µM): 83.3%
CNc1ncc2c(/C=C/C(=O)N3CCC(OC)CC3)nn(Cc3cccc(C(F)(F)F)c3)c2n1 — remaining activity (kinase activity, inhibitor; 1 µM; baseline: untreated control): 84%
COc1cc(-c2cncc3c2CN(C)Cc2cc(N4CCNCC4)ccc2-3)cc(OC)c1OC — remaining activity (kinase activity; 1 µM, added: ATP 10 µM; baseline: DMSO control): 101%
COc1cc(F)ccc1-c1ncnc(Nc2cccc(C[S@](C)(=N)=O)c2)n1 — remaining activity (kinase activity; 10 µM, added: 10 µM ATP): 79%
CCN(CC)c1ccc(C2=NNC(=O)CC2C)cc1[N+](=O)[O-] (centres unmarked) — remaining activity (kinase activity; 10 µM): 87%
COc1ccc(F)cc1C(=O)NCc1ccc(-c2nn([C@@H](C)C(F)(F)F)c(N)c2C(N)=O)cc1 — inhibition (target engagement, competitive chemoproteomics; human PBMCs; 0.01 µM): -10.9%
C=CC(=O)N1CCC[C@@H](n2nc(-c3ccc(Oc4ccccc4)cc3)c3c(N)ncnc32)C1 — remaining activity (1 µM): 105%
Cc1nc(Nc2ncc(C(=O)Nc3c(C)cccc3Cl)s2)cc(N2CC[C@H](O)C2)n1 — inhibition (0.001 µM): 89%
Cc1cc(Nc2cc(N3CCN(C)CC3)nc(Sc3ccc(NC(=O)C4CC4)cc3)n2)[nH]n1 — remaining activity (kinase activity, KinaseProfiler; 0.03 µM, species human; baseline: control): 105%
CC#CC(=O)N1CCC[C@H]1c1nc(-c2ccc(C(=O)Nc3ccccn3)cc2)c2c(N)nccn12 — remaining activity (kinase activity, inhibitor, HotSpot radiometric; 100 nM, added: ATP 10 µM): 102 ± 1.5%
[2H]c1cc(C)c(NC(=O)c2cnc(Nc3cc(N4CCCCC4)nc(C)n3)s2)c(Cl)c1 — inhibition (0.0001 µM): > 50%
